{"data": "Published values collected from several papers", "note": "Every numbered part comes from another study and shows a few of its results, in no order."}
{"data": "Series 1", "target": "Histone acetyltransferase KAT6A, both winged helices, GST fusion (KAT6A, Homo sapiens, UniProt Q92794, residues 1-181)", "method": "protein binding microarray", "form": "double-stranded DNA, one strand shown", "matrix": "in vitro", "concentration": "not given", "setting": "8-mer, flanks averaged, mean of 2 arrays, mostly near background", "relative to": "not given", "direction": "higher = stronger binding", "Residues (chain)": "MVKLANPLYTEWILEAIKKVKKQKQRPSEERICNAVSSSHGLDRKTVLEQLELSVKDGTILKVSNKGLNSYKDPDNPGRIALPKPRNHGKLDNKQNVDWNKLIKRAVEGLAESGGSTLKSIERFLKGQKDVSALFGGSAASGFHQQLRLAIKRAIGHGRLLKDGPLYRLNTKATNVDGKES"}
{"Sequence": "GATACATA", "E-score": -0.0209}
{"Sequence": "AATGTTGG", "E-score": -0.0653}
{"Sequence": "ATAGGGAT", "E-score": -0.141}
{"Sequence": "GCTGCTTA", "E-score": -0.0349}
{"Sequence": "CATTTACG", "E-score": 0.0689}
{"Sequence": "CGCTGGAC", "E-score": 0.0688}
{"Sequence": "ACCGTGTC", "E-score": 0.238}
{"data": "Series 2", "target": "Cyclic AMP-dependent transcription factor ATF-1, full length (ATF1, Homo sapiens, UniProt P18846, residues 1-271)", "method": "protein-binding microarray", "form": "hairpin DNA", "matrix": "in vitro", "concentration": "not given", "setting": "whole hairpin DNA, median over replicate spots", "relative to": "not given", "direction": "higher = stronger binding", "shared flanks, not repeated": "GAGGCCG … CGGCCTCACACTC", "Construct (chain)": "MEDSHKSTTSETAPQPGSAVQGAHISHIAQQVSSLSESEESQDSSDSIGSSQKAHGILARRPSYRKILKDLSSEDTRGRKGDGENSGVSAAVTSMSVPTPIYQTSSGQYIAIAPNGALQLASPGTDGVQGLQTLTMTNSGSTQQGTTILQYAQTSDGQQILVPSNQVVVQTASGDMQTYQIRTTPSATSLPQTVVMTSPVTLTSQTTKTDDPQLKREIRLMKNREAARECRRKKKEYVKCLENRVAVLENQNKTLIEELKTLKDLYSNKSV"}
{"Sequence": "GCTGACCGCAGCCTCCTGGCTGCGGTCAGC (5mC at 14)", "median fluorescence [a.u.]": 3410}
{"Sequence": "TATGACGTCAGCCTCCTGGCTGACGTCATA", "median fluorescence [a.u.]": 10900}
{"Sequence": "GCTGGCGTCAGCCTCCTGGCTGACGCCAGC (5mC at 33)", "median fluorescence [a.u.]": 7410}
{"Sequence": "GCTCGCGTCAGCCTCCTGGCTGACGCGAGC", "median fluorescence [a.u.]": 4170}
{"Sequence": "GATGAGGTCAGCCTCCTGGCTGACCTCATC", "median fluorescence [a.u.]": 3580}
{"Sequence": "ACGGCGTCGTGCCTCCTGGCACGACGCCGT (5mC at 9 15 29 34 35)", "median fluorescence [a.u.]": 3840}
{"Sequence": "GCTGACCTCAGCCTCCTGGCTGAGGTCAGC (5mC at 14)", "median fluorescence [a.u.]": 3100}
{"Sequence": "GATGACGTCCGCCTCCTGGCGGACGTCATC", "median fluorescence [a.u.]": 7930}
{"Sequence": "GCTGACGTCAGCCTCCTGGCTGACGTCAGC", "median fluorescence [a.u.]": 11600}
{"Sequence": "GATCGCGTCAGCCTCCTGGCTGACGCGATC (5mC at 33)", "median fluorescence [a.u.]": 5580}
{"data": "Series 3", "target": "Ras GTPase-activating protein-binding protein 1, C-terminal RGG region (G3BP1, Homo sapiens, UniProt Q13283)", "method": "RNA Bind-n-Seq", "form": "RNA", "matrix": "in vitro", "concentration": "1 µM", "setting": "whole 134-nt RNA, ends assumed", "added": "150 mM KCl", "relative to": "input library", "direction": "higher = stronger binding", "chain of UniProt Q13283 (whole entry, looked up)": "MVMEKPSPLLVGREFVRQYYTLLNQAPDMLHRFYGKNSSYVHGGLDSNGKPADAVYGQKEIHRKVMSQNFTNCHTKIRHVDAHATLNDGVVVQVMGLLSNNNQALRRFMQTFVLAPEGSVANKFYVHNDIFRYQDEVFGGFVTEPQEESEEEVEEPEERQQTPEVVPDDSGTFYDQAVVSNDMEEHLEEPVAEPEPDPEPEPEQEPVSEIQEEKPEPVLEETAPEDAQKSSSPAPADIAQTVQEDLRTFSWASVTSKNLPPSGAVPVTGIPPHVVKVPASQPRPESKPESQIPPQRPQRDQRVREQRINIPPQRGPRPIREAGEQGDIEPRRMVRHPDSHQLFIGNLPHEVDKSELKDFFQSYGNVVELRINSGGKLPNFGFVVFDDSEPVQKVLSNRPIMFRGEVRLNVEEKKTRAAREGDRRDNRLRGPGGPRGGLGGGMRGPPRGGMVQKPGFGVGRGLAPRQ"}
{"Sequence": "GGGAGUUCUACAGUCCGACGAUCUGGCCCUGGUGGCAUGCGGGGAGGAAGAGGUGGCCUCAUGGAUCGUGGUGGUCCCGGUGUAAUGUUCAGAGGUGGCCGUGGUGGAGACAGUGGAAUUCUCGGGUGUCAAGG", "log2 enrichment": 1.6}
{"Sequence": "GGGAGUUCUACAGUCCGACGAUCUCCUGUGCUACACAUCGUAUGUACCGAAUCGGGGUUUUUGGGGAGGGGAAAAAAAGGGGAAAGUAUUAUGUUACGCCGUUCGGAUCUGCAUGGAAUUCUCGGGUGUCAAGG", "log2 enrichment": 1.49}
{"Sequence": "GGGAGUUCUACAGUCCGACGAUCACCAUGCAGGUGGGCAUCUUUGUGAAGUGGGGCAAGGGGGGGAUAGGGAGGGGGGUAACACUUUGGGAACAGGUGGUCCCAGGUCGUUUCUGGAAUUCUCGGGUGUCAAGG", "log2 enrichment": -0.87}
{"Sequence": "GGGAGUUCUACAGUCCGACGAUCGCAGGAAGUAAAAACAAAUGGAAAUGCUUCGGAUAGUGGCAGGGGUGGGGAAAGCUAAGGAAAGGGUGGGAUGGGAGUGGGUAAAGAGUUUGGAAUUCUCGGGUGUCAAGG", "log2 enrichment": 1.58}
{"Sequence": "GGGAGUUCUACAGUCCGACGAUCUCAAGUCCUGUGCUACACAUCGUAUGUACCGAAUCGGCCCGGGGCCCGGCCCGGGAAAGUAUUAUGUUACGCCGUUCGGAUCUGCACUUCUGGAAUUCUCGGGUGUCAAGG", "log2 enrichment": -1.5}
{"Sequence": "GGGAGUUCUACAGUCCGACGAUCAAGUCCUGUGCUACACAUCGUAUGUACCGAAUCGGUUUGGUUUUUGGAAAAAAAGGAAAGUAUUAUGUUACGCCGUUCGGAUCUGCACUUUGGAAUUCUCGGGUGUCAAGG", "log2 enrichment": -1.73}
{"Sequence": "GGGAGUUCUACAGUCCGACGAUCCCUGUGCUACACAUCGUAUGUACCGAAUCGGGUUUUUUUGGGAAAAAGGGUUUUUUUGGGAAAGUAUUAUGUUACGCCGUUCGGAUCUGCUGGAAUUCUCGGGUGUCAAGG", "log2 enrichment": -1.9}
{"Sequence": "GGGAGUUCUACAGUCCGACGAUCACCAUGCAGGUGGGCAUCUUUGGGAAGUGGGGCAAGGGGGGGAUAGGGAGGGGGGUAACACUUUGGGAACAUGUGGUCCCAGGUCGUUUCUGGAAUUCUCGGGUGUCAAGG", "log2 enrichment": 2.29}
{"Sequence": "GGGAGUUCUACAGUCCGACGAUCCACAGACAACACGCACCCACACAGACACAGAGGGAAGGGGUUGGGAUGGGGACAGGGUGCACAGUAGGGCGGGGUAGGACCCCAGCCCCUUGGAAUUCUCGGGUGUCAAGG", "log2 enrichment": 0.492}
{"Sequence": "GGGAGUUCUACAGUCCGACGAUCCCUGUGCUACACAUCGUAUGUACCGAAUCGGGGUUUUUUUGGUUUUUUUGGUUUUUUUGGAAAGUAUUAUGUUACGCCGUUCGGAUCUGCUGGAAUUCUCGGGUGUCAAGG", "log2 enrichment": -1.51}
{"Sequence": "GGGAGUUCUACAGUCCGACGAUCUGGCCCUCAAGCACUGCACAGAGGCCCUUCUUUCUCUUGGCCAGUACUCCAUGGCAGACUUCACAGGGCCUUGUCCAUUGGAAAUAGAACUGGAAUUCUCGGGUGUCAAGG", "log2 enrichment": -1.39}
{"data": "Mixed results"}
{"Substance": "PhoQ, residues 284 288 289 292 302 303 SIHLQL", "target": "PhoP, residues 12 14 15 18 19 NQGLL (Escherichia coli, UniProt P23836)", "assay": "Sort-seq, item: YFP reporter", "system": "E. coli", "conditions": "PhoQ-PhoP variant library, added: 10 µM Mg2+", "how to read": "relative to: high Mg2+ state, higher = stronger signaling", "endpoint": "fold induction", "result": 5.49}
{"note": "For quick reference, copied from above (series 2):"}
{"Sequence": "GATGAGGTCAGCCTCCTGGCTGACCTCATC", "median fluorescence [a.u.]": 3580}
{"Sequence": "ACGGCGTCGTGCCTCCTGGCACGACGCCGT (5mC at 9 15 29 34 35)", "median fluorescence [a.u.]": 3840}
{"Sequence": "GCTGACCTCAGCCTCCTGGCTGAGGTCAGC (5mC at 14)", "median fluorescence [a.u.]": 3100}
{"Sequence": "GATGACGTCCGCCTCCTGGCGGACGTCATC", "median fluorescence [a.u.]": 7930}
